# Published values from different studies.
# Parts stem from different laboratories: compare values within a part only. Substitutions count along the parent as printed.

# Block 1
# Target: HLF, bZIP domain (human)
# Technique: DHFR protein complementation
# Medium: yeast
# Notes: single substitutions, most at no-binding floor
# Reference: wild-type JUN-FOS pair
# Direction: higher = stronger binding
# Starting sequence: JUN, bZIP domain (human); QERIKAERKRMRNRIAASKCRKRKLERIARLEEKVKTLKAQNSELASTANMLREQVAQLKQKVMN; partner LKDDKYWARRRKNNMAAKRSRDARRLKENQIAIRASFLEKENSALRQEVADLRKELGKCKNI
Variant,binding fitness [natural log]
S43D,-1.37
A49C,-1.35
A49E,-1.5
T37C,-1.38
S43G,-1.42
A57R,-1.43
T48E,-1.33
N42Y,-1.32
L52T,-1.41
E54V,-1.53
E32V,-1.28
E33P,-1.45
I28H,-1.44
E32H,-1.4
S47P,-1.52
K39Q,-1.32

# Block 2
# Target: ABI1, truncated, D143A, DHFR fusion (Arabidopsis thaliana)
# Technique: DHFR PCA, deep sequencing
# Medium: yeast
# Notes: methotrexate growth selection, single substitutions
# Added: (+)-ABA 2500 µM
# Reference: wild-type fitted maximum
# Direction: higher = stronger binding
# Starting sequence: PYL1, truncated, DHFR fusion (Arabidopsis thaliana); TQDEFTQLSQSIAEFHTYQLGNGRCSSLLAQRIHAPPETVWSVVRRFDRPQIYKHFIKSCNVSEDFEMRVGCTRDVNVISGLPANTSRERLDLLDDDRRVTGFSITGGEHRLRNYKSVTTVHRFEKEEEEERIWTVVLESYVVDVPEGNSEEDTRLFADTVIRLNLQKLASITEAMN
Variant,relative binding score
S117G,85%
L20Y,93.5%
K58W,84%
Y18P,102%
A84N,56%
V70W,74.9%
P37N,84.5%
E151V,99.3%
I33S,60%
N149Y,56.2%
R69C,94.1%

# Block 3
# Target: Sal-like protein 4, full length isoform B (SALL4, Homo sapiens, UniProt Q9UJQ4-2, residues 1-616)
# Technique: universal PBM
# Form: double-stranded DNA, one strand shown
# Medium: in vitro
# Tested at: not given
# Notes: 8-mer, flanks averaged, mean of replicates
# Direction: higher = stronger binding
Strand,E-score
TATTTCAA,0.384
TAGCGTCA,0.0106
CACACAGA,-0.0679
GTACGGTA,0.0249
CAAGATAA,0.22
GAATCGGC,-0.143
CGGTTAAC,-0.114
CAATACTA,0.191
GCTCAACC,-0.231
AGACTGAG,-0.147
CCACCCAA,-0.0951
TGGGATAA,0.12
AATTGGGT,0.206
CGGCTAGA,-0.199
AAATTGCG,0.211
CAATGGAA,0.00412
GCCACACC,-0.134
GGTGATGA,0.00874
CTTAATAA,0.379
AGTATAAA,0.357
GAGCAGGC,-0.279
CGGATCAA,0.0563
AGAACGTG,-0.00124
CAGTGTCC,-0.174
GAAGTAGA,0.00785

# Block 4
# Target: Prothrombin, mature alpha-thrombin (F2, Homo sapiens, UniProt P00734)
# Technique: aptamer microarray, sandwich
# Form: DNA with 2'F-ANA
# Medium: in vitro
# Tested at: 200 nM
# Notes: whole 15-mer aptamer, many near background
# Added: Cy3 exosite-II aptamer, 400 nM
# Direction: higher = stronger binding
# Strand: GGTTGGTGTGGTTGG
Modification,mean fluorescence intensity [a.u.]
2'F-ANA at 1 3 6 9 11 12 15,350
2'F-ANA at 1 3 5 6 7 8 9 15,74.1
2'F-ANA at 5 6 7 8 9 10 12 13 14 15,47.3
2'F-ANA at 1 2 4 7 8 11 15,162
2'F-ANA at 5 6 9 10 11 14,45.3
2'F-ANA at 3 4 7 13 14 15,404
2'F-ANA at 1 3 4 6 7 10 13 14 15,57.8
2'F-ANA at 2 3 8 9 11 14,449
2'F-ANA at 2 3 4 6 8 10 14 15,148
2'F-ANA at 1 5 9 11 13 14 15,47.3
2'F-ANA at 1 3 6 10 11 12 13 14,56.7
2'F-ANA at 2 6 7 9 10 11 13 14 15,108
2'F-ANA at 1 2 4 5 7 9 10 11 12 14 15,47.6
2'F-ANA at 4 6 7 8 9 12 13,380
2'F-ANA at 2 5 6 8 9 10,47.5
2'F-ANA at 1 2 4 8 9 13 15,92
2'F-ANA at 3 5 6 11 12 13 14,57.6
2'F-ANA at 1 2 3 4 5 7 8 10 11,52.7
2'F-ANA at 5 7 12,183
2'F-ANA at 2 3 4 5 8 9 10 11 13 15,57.4
2'F-ANA at 5 7 8 9 10 13 15,48.8
2'F-ANA at 2 7 8 10 11 12 13 15,159
2'F-ANA at 1 2 4 10,51.8
2'F-ANA at 1 3 4 5 7 8 9 10 11 13 14,73.9
2'F-ANA at 1 2 4 5 6 7 9 10 13 15,49.3

# Block 5
# Target: CCNF, cyclin fold, Cln2 fusion (human)
# Technique: yeast growth competition, sequencing
# Medium: yeast
# Notes: strong parent motif
# Reference: not given
# Direction: higher = stronger binding
# Starting sequence: INSM1 docking peptide (human); PKAIRKLHFEDEV; partner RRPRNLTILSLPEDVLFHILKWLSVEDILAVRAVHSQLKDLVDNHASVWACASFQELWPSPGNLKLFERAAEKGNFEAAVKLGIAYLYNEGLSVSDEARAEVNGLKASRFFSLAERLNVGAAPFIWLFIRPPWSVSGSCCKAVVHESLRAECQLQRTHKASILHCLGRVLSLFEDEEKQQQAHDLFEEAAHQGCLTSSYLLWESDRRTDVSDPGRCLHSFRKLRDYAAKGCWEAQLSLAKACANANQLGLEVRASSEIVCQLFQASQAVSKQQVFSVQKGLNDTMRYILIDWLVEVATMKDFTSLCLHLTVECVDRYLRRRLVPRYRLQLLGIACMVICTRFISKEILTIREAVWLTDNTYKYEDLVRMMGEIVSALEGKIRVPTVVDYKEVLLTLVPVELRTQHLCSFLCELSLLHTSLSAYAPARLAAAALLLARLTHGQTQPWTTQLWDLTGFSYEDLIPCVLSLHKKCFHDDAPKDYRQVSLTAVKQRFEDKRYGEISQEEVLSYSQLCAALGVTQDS
Variant,normalised enrichment score
K6Y,4.97
F9W,4.3
E10R,6.85
E12A,7.92
E10V,7.51
K6D,0.418
H8L,8.21
K2W,7.59
F9G,-0.168
H8C,7.9
A3W,5.43
F9Y,4.66
I4C,7.72
K6E,5.62
R5F,0.287
R5E,0.133
I4T,6.76
E10S,7.76
D11E,7.89
K6W,2.58
L7C,0.371
E10Q,7.37
E12P,7.92
K2M,7.4
D11H,7.55

# Block 6
# Target: Fragile X messenger ribonucleoprotein 1, C-terminal low-complexity region (Fmr1, Mus musculus, UniProt P35922)
# Technique: RNA Bind-n-Seq
# Form: RNA
# Medium: in vitro
# Tested at: 200 nM
# Notes: whole 134-nt RNA, ends assumed
# Added: 150 mM LiCl
# Reference: input library
# Direction: higher = stronger binding
# All molecules: 7-deaza-guanosine replaces G
Strand,log2 enrichment
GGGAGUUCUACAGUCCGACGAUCCAAGUCCUGUGCUACACAUCGUAUGUACCGAAUCGGGGAAGGGGAAGGGAAGGGGAAAGUAUUAUGUUACGCCGUUCGGAUCUGCACUUCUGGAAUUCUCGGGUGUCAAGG,-0.0635
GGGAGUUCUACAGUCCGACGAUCUGACCUGCACGGACAUCAACACCCUGACAAGGCAGAAGGAACUUCUCCUGCAGAAGCUGAGCACAUUUGAGGAGACCAACCGCACCCUCCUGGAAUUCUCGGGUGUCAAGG,0.349
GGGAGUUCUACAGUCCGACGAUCUCAAGUCCUGUGCUACACAUCGUAUGUACCGAAUCGGGGUGGGGUGGGGUGGGGAAAGUAUUAUGUUACGCCGUUCGGAUCUGCACUUCCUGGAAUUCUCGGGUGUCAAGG,-0.395
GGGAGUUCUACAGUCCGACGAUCCCUCAAGUCCUGUGCUACACAUCGUAUGUACCGAAUCGGUGGGGUGGGUGGGGAAAGUAUUAUGUUACGCCGUUCGGAUCUGCACUUCCAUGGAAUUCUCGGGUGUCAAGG,-0.0388
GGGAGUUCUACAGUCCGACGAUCUGGCCCUGGUGUCAUGCGGGGAGGAAGAGGUGGCCUCAUGGAUCGUGGUGGUCCCGGUGGAAUGUUCAGAGGUGGCCGUGGUGGAGACAGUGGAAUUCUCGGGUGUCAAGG,-0.189
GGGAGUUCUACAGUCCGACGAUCGCAGGAAGUAAAAACAAAUGGAAAUGCUUCGGAUAGUGGCAGGGGUGGGGGUUGCUAAGGAAAGGGUUGGAUGGGAGUGGGUAAAGAGUUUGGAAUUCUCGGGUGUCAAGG,1.31
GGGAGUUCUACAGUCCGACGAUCAGUCCUGUGCUACACAUCGUAUGUACCGAAUCGGGAAAAAGGGAAAAAGGGAAAGGGAAAGUAUUAUGUUACGCCGUUCGGAUCUGCACUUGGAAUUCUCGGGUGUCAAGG,-1.03
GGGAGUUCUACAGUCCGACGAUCCUGUGCUACACAUCGUAUGUACCGAAUCGGGAAAAAAAGGAAAAAAAGGGGAAAAAAAGGGAAAGUAUUAUGUUACGCCGUUCGGAUCUGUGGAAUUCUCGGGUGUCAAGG,-2.55e-05
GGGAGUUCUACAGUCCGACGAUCAGUCCUGUGCUACACAUCGUAUGUACCGAAUCGGGAAAAAGGGUUUUUGGGUUUGGGAAAGUAUUAUGUUACGCCGUUCGGAUCUGCACUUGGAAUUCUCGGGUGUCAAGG,-2.59
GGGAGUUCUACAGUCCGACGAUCAGUCCUGUGCUACACAUCGUAUGUACCGAAUCGGGUUUUUGGUUUUUGGGGUUUUUGGAAAGUAUUAUGUUACGCCGUUCGGAUCUGCACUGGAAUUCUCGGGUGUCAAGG,-1.5
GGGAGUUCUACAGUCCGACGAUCCUCAAGUCCUGUGCUACACAUCGUAUGUACCGAAUCGGAGGAAAAAAAGGAGGAAAGUAUUAUGUUACGCCGUUCGGAUCUGCACUUCCAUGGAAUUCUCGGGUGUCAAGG,-0.875

# Repeated from above (block 3):
Strand,E-score
CAATACTA,0.191
GCTCAACC,-0.231
AGACTGAG,-0.147
CCACCCAA,-0.0951
TGGGATAA,0.12
AATTGGGT,0.206
CGGCTAGA,-0.199
